Experimental data from different studies.
Each line is one published result; not all experiments were run side by side. Numbers after ± are the reported error.

The chains behind the UniProt entries cited, without tags or fusion partners. Where a name states a change or a piece, a line headed by the entry shows the natural chain unless it says otherwise. Residues count along the entry.
UniProt P21728, whole entry: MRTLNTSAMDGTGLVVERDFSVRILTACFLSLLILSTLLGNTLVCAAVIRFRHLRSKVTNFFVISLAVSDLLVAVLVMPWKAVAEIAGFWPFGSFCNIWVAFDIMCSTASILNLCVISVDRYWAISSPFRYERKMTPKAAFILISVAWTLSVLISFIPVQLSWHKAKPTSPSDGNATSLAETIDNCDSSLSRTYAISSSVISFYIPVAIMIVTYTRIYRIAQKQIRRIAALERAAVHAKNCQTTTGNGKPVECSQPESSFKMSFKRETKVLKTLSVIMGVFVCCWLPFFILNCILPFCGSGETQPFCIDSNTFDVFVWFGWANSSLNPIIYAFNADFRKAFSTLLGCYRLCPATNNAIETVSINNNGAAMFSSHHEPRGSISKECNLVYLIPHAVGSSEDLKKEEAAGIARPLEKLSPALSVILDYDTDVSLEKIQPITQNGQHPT
UniProt P22307, 425-547 limits assumed: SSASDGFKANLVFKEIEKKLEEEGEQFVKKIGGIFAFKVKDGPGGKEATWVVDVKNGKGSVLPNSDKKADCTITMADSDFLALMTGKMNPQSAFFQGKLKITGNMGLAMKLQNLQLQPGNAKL
UniProt P94556, whole entry: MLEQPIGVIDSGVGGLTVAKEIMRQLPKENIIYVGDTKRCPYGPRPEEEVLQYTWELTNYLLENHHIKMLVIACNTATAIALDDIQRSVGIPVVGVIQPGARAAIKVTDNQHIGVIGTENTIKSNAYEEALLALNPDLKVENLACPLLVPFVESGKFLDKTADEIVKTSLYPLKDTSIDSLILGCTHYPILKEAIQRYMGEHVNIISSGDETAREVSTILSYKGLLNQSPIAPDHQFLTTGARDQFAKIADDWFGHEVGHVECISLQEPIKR
UniProt Q9UHY1, whole entry: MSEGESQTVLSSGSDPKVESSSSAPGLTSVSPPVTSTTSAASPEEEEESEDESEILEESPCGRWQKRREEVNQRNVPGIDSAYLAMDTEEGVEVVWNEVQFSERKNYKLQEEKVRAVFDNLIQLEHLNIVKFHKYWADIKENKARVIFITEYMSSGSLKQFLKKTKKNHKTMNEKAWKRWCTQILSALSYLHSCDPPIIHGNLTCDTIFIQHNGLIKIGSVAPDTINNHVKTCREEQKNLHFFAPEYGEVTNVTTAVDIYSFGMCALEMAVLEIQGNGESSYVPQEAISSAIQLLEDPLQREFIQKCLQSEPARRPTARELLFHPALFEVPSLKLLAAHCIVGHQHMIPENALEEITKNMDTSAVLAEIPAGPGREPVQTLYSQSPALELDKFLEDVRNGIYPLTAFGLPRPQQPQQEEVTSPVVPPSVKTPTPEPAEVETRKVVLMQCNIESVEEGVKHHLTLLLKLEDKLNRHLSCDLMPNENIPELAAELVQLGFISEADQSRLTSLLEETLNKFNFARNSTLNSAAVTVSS
UniProt P40261, whole entry: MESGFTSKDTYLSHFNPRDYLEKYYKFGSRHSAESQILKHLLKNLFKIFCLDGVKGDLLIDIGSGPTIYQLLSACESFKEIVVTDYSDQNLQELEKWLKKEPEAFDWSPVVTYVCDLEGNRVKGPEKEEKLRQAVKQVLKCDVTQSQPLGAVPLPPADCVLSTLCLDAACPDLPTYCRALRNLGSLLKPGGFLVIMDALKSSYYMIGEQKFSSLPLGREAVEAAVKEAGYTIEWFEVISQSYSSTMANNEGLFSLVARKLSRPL
UniProt P49137, whole entry: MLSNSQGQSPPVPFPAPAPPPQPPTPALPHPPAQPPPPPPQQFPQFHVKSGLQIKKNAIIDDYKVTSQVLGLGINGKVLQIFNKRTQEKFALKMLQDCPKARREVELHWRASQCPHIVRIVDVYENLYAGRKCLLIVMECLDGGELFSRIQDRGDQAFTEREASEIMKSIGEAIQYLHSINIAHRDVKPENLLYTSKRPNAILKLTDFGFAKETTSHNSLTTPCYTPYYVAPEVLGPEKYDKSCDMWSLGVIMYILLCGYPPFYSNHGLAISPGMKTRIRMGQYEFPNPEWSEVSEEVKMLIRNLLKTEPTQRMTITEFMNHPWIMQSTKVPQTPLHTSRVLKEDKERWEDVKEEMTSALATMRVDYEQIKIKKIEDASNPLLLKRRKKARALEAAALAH
UniProt P34972, whole entry: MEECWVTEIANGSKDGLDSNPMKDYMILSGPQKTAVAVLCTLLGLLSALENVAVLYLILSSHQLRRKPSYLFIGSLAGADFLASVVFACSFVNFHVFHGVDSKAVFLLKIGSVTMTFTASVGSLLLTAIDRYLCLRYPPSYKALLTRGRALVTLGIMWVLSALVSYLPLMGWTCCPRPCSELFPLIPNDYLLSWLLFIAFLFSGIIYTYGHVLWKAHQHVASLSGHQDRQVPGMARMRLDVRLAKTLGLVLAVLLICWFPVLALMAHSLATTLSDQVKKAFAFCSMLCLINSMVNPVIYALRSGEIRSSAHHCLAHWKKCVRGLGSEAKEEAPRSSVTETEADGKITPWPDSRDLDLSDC
UniProt Q15391, whole entry: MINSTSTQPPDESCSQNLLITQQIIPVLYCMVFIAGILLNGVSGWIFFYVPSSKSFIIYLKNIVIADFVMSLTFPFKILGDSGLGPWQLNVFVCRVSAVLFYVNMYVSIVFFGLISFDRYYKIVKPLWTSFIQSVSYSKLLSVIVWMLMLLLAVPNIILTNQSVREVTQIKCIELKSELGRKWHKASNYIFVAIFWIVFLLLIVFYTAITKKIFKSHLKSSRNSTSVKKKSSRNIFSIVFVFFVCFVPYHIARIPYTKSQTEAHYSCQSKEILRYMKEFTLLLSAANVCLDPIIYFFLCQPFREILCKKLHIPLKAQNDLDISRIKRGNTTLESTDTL

SMILES | target | test | test system | conditions | how to read | endpoint | value
CCCN1CCN(c2ccc3c(c2)C2CC3CCN2C(=O)OCc2ccccc2)CC1 (stereo not shown) | DRD1 (Homo sapiens, UniProt P21728) | binding, radioligand binding | – | – | – | Ki | > 10000 nM
COc1cc([N+](=O)[O-])cc2c1NC(c1ccc(Br)cc1)=NO2 | Sterol carrier protein 2 (Homo sapiens, UniProt P22307) | binding, fluorescence | – | together with: NBD-stearic acid 500 nM | – | Ki | 3900 ± 100 nM
O=C(O)c1cc(F)cc2[nH]c(S(=O)(=O)O)nc12 | racE (Bacillus subtilis, UniProt P94556) | – | – | – | – | Ki | 2500 ± 400 nM
CCN1CCN(Cc2ccc(NC(=O)c3ccc(C)c(/C=C/c4cnc5[nH]ccc5c4OC)c3)cc2C(F)(F)F)CC1 | Nuclear receptor-binding protein (NRBP1, Homo sapiens, UniProt Q9UHY1) | kinase-CDC37 interaction, inhibitor | human cells | 5 µM | baseline: vehicle | log2 fold change | 0.285
NC(=O)c1cccc(CCN(CC[C@H](N)C(=O)O)C[C@H]2O[C@@H](n3cnc4c(N)ncnc43)[C@H](O)[C@@H]2O)c1 | NNMT (Homo sapiens, UniProt P40261) | binding, fluorescence polarisation competition | – | 30 min, room temperature, enzyme 0.5 µM, together with: fluorescent probe 5 nM | – | Ki | 11300 ± 1800 nM
CC#C/C(=N\OC[C@H]1COCCN1)c1ccc2ncnc(Nc3ccc(OCc4cccc(F)c4)c(Cl)c3)c2c1 | MAPKAPK2 (Homo sapiens, UniProt P49137) | kinase activity | – | 10 µM | – | inhibition | 0%
CCN(CC)c1ccc(CN(c2ccc(C)cc2)S(=O)(=O)c2ccc(OC)cc2)cc1 | CNR2 (Homo sapiens, UniProt P34972) | inverse agonist, radioligand competition binding | – | – | – | Ki | 0.5 nM
O=c1ccn([C@@H]2O[C@H](COP(=O)(O)OP(=O)(O)O[C@H]3O[C@H](CO)[C@@H](O)[C@H](O)[C@H]3O)[C@@H](O)[C@H]2O)c(=S)[nH]1 | P2Y purinoceptor 14 (P2RY14, Homo sapiens, UniProt Q15391) | flow cytometry | CHO cells expressing target | 30 min, together with: fluorescent tracer 50 nM | – | Ki | 340 ± 40 nM
CC1(C)S[C@@H]2CS[C@@H](CS)N2[C@H]1C(=O)O | VIM-2 (Escherichia coli, UniProt Q5U7L7) | nitrocefin hydrolysis, slow-binding inhibitor | Pseudomonas aeruginosa | together with: nitrocefin | – | Ki | 100 ± 30 nM
Cc1cc(O)c2c(c1)C(=O)c1cc(O)cc(O)c1C2=O | dengue virus 2 NS2B-NS3 protease | inhibitor | TSV01 | – | – | Ki | 508000 ± 47000 nM

For quick reference, copied from above:
SMILES | target | test | test system | conditions | how to read | endpoint | value
O=C(O)c1cc(F)cc2[nH]c(S(=O)(=O)O)nc12 | racE (Bacillus subtilis, UniProt P94556) | – | – | – | – | Ki | 2500 ± 400 nM
